Experimental data from different studies.
Compare with care: the assays were run in different laboratories. ± marks the error that the study gave.
PPO3: PPO3 (Agaricus bisporus, UniProt C7FF04)
Proteasome subunit alpha type-2/Proteasome subunit alpha type-6 20S proteasome: Proteasome subunit alpha type-2/Proteasome subunit alpha type-6, 20S proteasome (Homo sapiens, UniProt P25787+P60900)
T1: dsDNA, self-complementary, T9 linker hairpin; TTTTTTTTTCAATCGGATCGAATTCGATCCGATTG
T2: SNCA mRNA 5' UTR IRE (Homo sapiens); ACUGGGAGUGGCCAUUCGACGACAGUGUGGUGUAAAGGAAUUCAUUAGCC
T3: dsDNA, hairpin; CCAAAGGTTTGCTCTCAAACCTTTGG

SMILES	target	test	test system	setting	scale	quantity	value
COC(=O)[C@@H](CS)N1C(=O)c2ccc(N(C)C)cc2C1=O	VIM-2 (Escherichia coli, UniProt Q5U7L7)	–	–	10 µM, with: 3 equivalents protein, 10 µM ZnSO4	–	fluorescence increase	6.9 fold
CN1CCN(CCCNc2cc3c4c(c(NCCCN5CCN(C)CC5)cc5c4c2C(=O)N(CCCN2CCN(C)CC2)C5=O)C(=O)N(CCCN2CCN(C)CC2)C3=O)CC1	T1, dsDNA, self-complementary, T9 linker hairpin	SPR	–	KCl 100 mM, two-site fit	–	Kd	44.7 µM
O=C(CCCC[C@@H]1SC[C@@H]2NC(=O)N[C@@H]21)NCCCNC(=O)Cn1nc(-c2ccccc2)c2c(Cl)c(-c3ccccc3)nnc21	60 kDa heat shock protein, mitochondrial (Homo sapiens, UniProt P10809)	peptide conjugation	–	–	–	covalent conjugation	~2%
COc1cc(CC(=O)O)ccc1O	p-hydroxyphenylacetate 3-hydroxylase, reductase component (C1-hpah, Acinetobacter baumannii, UniProt Q6Q271)	ITC	–	pH 7	–	ΔG	-6.02 ± 0.12 kcal/mol
[123I]c1ccc2nc(-c3ccc(-n4ccnn4)nc3)cn2c1	Amyloid-beta precursor protein, amyloid-beta (APP, Homo sapiens, UniProt P05067)	SPECT	Alzheimer's disease patients, Temporal cortex	150 to 240 min	reference: cerebellum	SUVR	1.39 ± 0.32
CC(C)C[C@H](NC(=O)[C@H](CCCNC(=N)N)NC(=O)[C@@H](N)CS)C(=O)N[C@@H](CC(N)=O)C(=O)O	PPO3	enzyme activity, inhibitor	–	100 µM	–	remaining activity	79.5%
CCCCCCC(=O)Nc1ccc(OC)nc1C	Carboxylesterase 3 (CES3, Homo sapiens, UniProt Q6UWW8)	substrate	–	50 µM, pH 8, 37 °C, enzyme purity 3%	–	specific activity	3.9 pmol/min/µg
O=C(CCn1c2ccccc2c2ccc(Cl)cc21)N(c1ccc(F)cc1)c1ccc(F)cc1	Proteasome subunit alpha type-2/Proteasome subunit alpha type-6 20S proteasome	proteolysis, activator, fluorogenic peptide	purified 20S proteasome	with: Suc-LLVY-AMC, Z-LLE-AMC, Boc-LRR-AMC	–	EC200	0.9 ± 0.5 µM
CC(C)C[C@H](NC(=O)CNC(=O)[C@H](CC(C)C)NC(=O)[C@@H]1CCCN1C(=O)CNC(=O)[C@H](Cc1ccccc1)NC(=O)[C@@H](N)Cc1ccccc1)C(=O)N[C@@H](CCCNC(=N)N)C(=O)N[C@@H](CO)C(=O)N[C@@H](CCCCN)C(=O)O	MMP9 (Homo sapiens, UniProt P14780)	substrate, HPLC	–	500 µM, 72 h, pH 7.5, 37 °C	–	hydrolysis product	100%
CC(C)C[C@H](NC(=O)[C@H](CC(N)=O)NC(=O)[C@H](CCCNC(=N)N)NC(=O)[C@@H](N)CS)C(=O)O	PPO3	enzyme activity, inhibitor	–	25 µM	–	remaining activity	71.9%
O=C(NCCCN1CCC(Cc2ccccc2)CC1)c1cccc2ccccc12	SLC6A3 (Homo sapiens, UniProt Q01959)	dopamine uptake, inhibitor	HEK293	with: [3H]dopamine	–	IC50	8.09 µM
COc1ccc(-c2cc(C(=O)N[C@@H](Cc3ccccc3)C(=O)NC3CCCCC3)ccc2O)cc1	TRPV1 (Homo sapiens, UniProt Q8NER1)	–	–	12.5 µM	–	activity	inactive
CCC1(O)CCCN(C(=O)c2cccc(C#N)c2)C1 (stereo not shown)	DNA dC->dU-editing enzyme APOBEC-3B, C-terminal domain (Homo sapiens, UniProt Q9UH17)	binding, 1H CPMG NMR	–	20 µM protein	–	signal attenuation	5.45 ± 4.46%
COc1ccc2c(c1)CC[C@@H]1[C@@H]2CC[C@]2(C)C(=O)CC[C@@H]12	AKR1C1 (Homo sapiens, UniProt Q04828)	enzyme activity, inhibitor, absorbance	–	100 µM, pH 9	–	inhibition	22.5%
Cc1cc(=O)oc2cc(NC(=O)CCCCCCCC(=O)NO)ccc12	HDAC8 (Homo sapiens, UniProt Q9BY41)	ITC	Tris-HCl buffer	concentration not given, pH 7.5, 25 °C	–	binding stoichiometry	0.8 ± 0.1
CC(C)CC(NC(=O)C(NC(=O)NC(C(=O)O)C(C)C)C1CCNC(=N)N1)C(=O)NCCCNC(C(=O)O)C(OC1OC(CN)C(O)C1O)C1OC(n2ccc(=O)[nH]c2=O)C(O)C1O (stereo not shown)	mraY (Aquifex aeolicus, UniProt O66465, F262W)	ITC	–	F262W mutant	–	ΔH	-10.4 ± 0.7 kcal/mol
CC(C)C[C@H](NC(=O)[C@H](CC(N)=O)NC(=O)[C@H](CCC(=O)O)NC(=O)[C@@H](N)CS)C(=O)O	PPO3	enzyme activity, inhibitor	–	50 µM	–	remaining activity	81.2%
O=C(Cc1c(-c2ccccc2)n[nH]c1-c1ccccc1)NO	ADAM17 (Homo sapiens, UniProt P78536)	enzyme activity, inhibitor	–	10 µM	–	remaining activity	61%
CC[C@H](C)[C@H](NC(=O)[C@H](CCCCN)NC(=O)[C@H](CCCCN)NC(=O)[C@@H](NC(=O)[C@H](CCC(=O)O)NC(=O)[C@H](CCC(=O)O)NC(=O)[C@H](CCC(=O)O)NC(=O)[C@H](C)NC(=O)[C@H](CC(C)C)NC(=O)[C@H](CC(=O)O)NC(=O)[C@H](CC(C)C)NC(=O)CNC(=O)[C@H](CCCNC(=N)N)NC(=O)[C@H](CC(C)C)NC(=O)[C@H](CO)NC(=O)CNC(=O)CNC(=O)CNC(=O)CCCC[C@@H]1SC[C@@H]2NC(=O)N[C@@H]21)C(C)C)C(=O)N[C@@H](CC(C)C)C(=O)N[C@@H](CC(=O)O)C(=O)N[C@@H](CCC(=O)O)C(=O)N[C@H](C(=O)N[C@H](C(=O)N[C@@H](CCCCN)C(=O)N[C@@H](CC(=O)O)C(=O)O)C(C)C)[C@@H](C)CC	Fab B11 antibody (human)	binding, biolayer interferometry	–	–	reference: alanine mutant over wild type	Kd ratio	7.3

SMILES	target	test	test system	setting	scale	quantity	value
COc1cccnc1-c1nc2cc(OC(F)(F)F)ccc2[nH]1	Core-binding factor subunit beta, with RUNX1 (Homo sapiens, UniProt Q13951)	co-immunoprecipitation, inhibitor	SEM	10 µM, 6 h	–	RUNX1 binding	decreased
N=C(N)c1ccc(Nc2ccc(-c3cc4ccc(C(=N)N)cc4[nH]3)cc2)cc1	T2, SNCA mRNA 5' UTR IRE (Homo sapiens)	competition with labeled RNA, competitor, competitive fluorescence assay	–	with: 2-aminopurine-labeled SNCA IRE RNA	–	Kd	1.5 µM
COc1cc(F)c(C(C)C)cc1C1=C(CN2C(=O)O[C@H](c3cc(C(F)(F)F)cc(C(F)(F)F)c3)[C@@H]2C)CC(C)(C)CC1	Cholesteryl ester transfer protein (Homo sapiens, UniProt P11597)	enzyme activity	healthy male subjects, plasma	oral, 50 mg single dose	reference: baseline	maximum inhibition	66.9%
CC[C@H](C)[C@H](NC(=O)[C@H](Cc1ccc(O)cc1)NC(=O)[C@@H](NC(=O)[C@H](CCCNC(=N)N)NC(=O)[C@@H](N)CC(=O)O)C(C)C)C(=O)N[C@@H](Cc1c[nH]cn1)C(=O)N1CCC[C@H]1C(=O)O	angiotensin peptidase	substrate	control sheep CSF	–	–	Km	8.5 µM
O=c1c2ccccc2n(CC2CC2)c(=O)n1O	Flap endonuclease 1 (Homo sapiens, UniProt P39748, R100A)	substrate binding, fluorescence anisotropy	–	100 µM, with: DF1 substrate, Mg2+	reference: Ca2+ condition	relative KD	10 fold
CC(C)n1c(-c2ccc(C(=N)N)s2)nc2cc3nc(-c4ccc(C(=N)N)s4)n(C(C)C)c3cc21	T3, dsDNA, hairpin	SPR	–	pH 7.4, Na+ 100 mM	–	Kd	0.286 µM
COC(=O)C1=C(C)NC(C)=C(C(=O)OC)C1c1cccc(NC(=O)NCCCN2CCC(c3cccc(OC)c3)CC2)c1	NPY1R (Homo sapiens, UniProt P25929, T280A)	radioligand binding	–	concentration not given	reference: wild type	binding affinity decrease	~330 fold
COC(=O)C1=Cc2ccccc2S1(=O)=O	UBA1 (Homo sapiens, UniProt P22314)	–	–	10 µM, 30 min, 37 °C	–	ubiquitin charging	no effect
Nc1ncnc2c1ncn2[C@@H]1O[C@H](CO)[C@@H](O[C@H]2O[C@H](CO)[C@@H](OP(=O)(O)O)[C@H](OP(=O)(O)O)[C@H]2O)[C@H]1O	Itpr1 (Rattus norvegicus, UniProt P29994)	Ca2+ release	DT40-IP3R1, permeabilized	–	–	Hill coefficient	1.3 ± 0.2
[3H]C(CNC(=O)c1ccc(-c2ccsc2)cc1)C([3H])CN1CCN(c2ccccc2OCCF)CC1 (stereo not shown)	Drd3 (Rattus norvegicus, UniProt P19020)	radioligand, saturation binding	HEK293 membranes	30 min, 37 °C	–	Bmax	2440 ± 401 fmol/mg protein
CCc1nc2cc3ccccc3cc2cc1C(=O)N1CCC[C@H]1C(=O)N[C@@H](CCC/C=C/CCC[C@H](NC(=O)[C@@H]1CCCN1C(=O)c1cc2cc3ccccc3cc2nc1CC)C(=O)N[C@@H](CCCCN)C(=O)NCCCN)C(=O)N[C@@H](CCCCN)C(=O)NCCCN	(CAG)10 RNA	SPR	–	–	–	residence time	56 s
COc1cc(C2CC(=O)Nc3nc(N)[nH]c(=O)c32)ccc1O (stereo not shown)	uncharacterized protein (Leishmania donovani, UniProt A0A3Q8IA09)	Tyr fluorescence thermal shift	–	100 µM	–	melting temperature	65.8 °C
CC(=O)Nc1ncc(CN2CC[C@H](Oc3cccc([18F])n3)C[C@@H]2C)s1	Protein O-GlcNAcase (OGA, Homo sapiens, UniProt O60502)	PET two-tissue compartment model	human, cerebellum	dose not given	–	total distribution volume (VT)	9.8 mL/cm³
Cc1c(NC(=O)CC(C)C)c(=O)n(-c2ccccc2)n1C	3-oxoacyl-[acyl-carrier-protein] synthase 2 (Pseudomonas aeruginosa, UniProt O54440)	bio-layer interferometry	–	up to 2.5 mM, outcome: no binding	–	binding	no binding
O=C(CCn1c(=O)oc2ccccc21)N(c1ccc(F)cc1)c1ccc(F)cc1	Proteasome subunit alpha type-2/Proteasome subunit alpha type-6 20S proteasome	proteolysis, activator, fluorogenic peptide	purified 20S proteasome	up to 30 µM, with: Suc-LLVY-AMC, Z-LLE-AMC, Boc-LRR-AMC	reference: vehicle	maximum fold increase	4.8 ± 1.1
CCNC(=O)[C@H](CC(C)C)NC(=O)[C@H](Cc1c[nH]cn1)NC(=O)CNC(=O)[C@@H](NC(=O)[C@H](C)NC(=O)[C@H](Cc1c[nH]c2ccccc12)NC(=O)[C@H](CCC(N)=O)NC(=O)[C@H](N)Cc1ccccc1)C(C)C	GRPR (Homo sapiens, UniProt P30550)	FLIPR calcium	PC-3	5 nM	–	calcium release	22.3 ± 16.8 RFU
Cc1cc(N2CC[C@@](C#N)(C3CC3)C2=O)cc(NC(=O)Cc2ccccc2)n1	Proline--tRNA ligase (Plasmodium falciparum, UniProt Q8I5R7)	thermal shift	–	no substrate	–	melting temperature	67.9 °C
Cc1ncsc1-c1ccc([C@@H]2CCCCNC(=O)C[C@@H]3N=C(c4ccc(cc4)OCCCCC(=O)N[C@@H](C(C)(C)C)C(=O)N4C[C@H](O)C[C@H]4C(=O)N2)c2c(sc(C)c2C)-n2c(C)nnc23)cc1	Bromodomain-containing protein 4, long isoform (BRD4, Homo sapiens, UniProt O60885)	degrader, immunoblotting, item: BRD4 long isoform	PC-3	10 nM, 24 h	–	degradation	15%

A few entries again:
SMILES	target	test	test system	setting	scale	quantity	value
O=C(CCn1c2ccccc2c2ccc(Cl)cc21)N(c1ccc(F)cc1)c1ccc(F)cc1	Proteasome subunit alpha type-2/Proteasome subunit alpha type-6 20S proteasome	proteolysis, activator, fluorogenic peptide	purified 20S proteasome	with: Suc-LLVY-AMC, Z-LLE-AMC, Boc-LRR-AMC	–	EC200	0.9 ± 0.5 µM
CC(C)C[C@H](NC(=O)CNC(=O)[C@H](CC(C)C)NC(=O)[C@@H]1CCCN1C(=O)CNC(=O)[C@H](Cc1ccccc1)NC(=O)[C@@H](N)Cc1ccccc1)C(=O)N[C@@H](CCCNC(=N)N)C(=O)N[C@@H](CO)C(=O)N[C@@H](CCCCN)C(=O)O	MMP9 (Homo sapiens, UniProt P14780)	substrate, HPLC	–	500 µM, 72 h, pH 7.5, 37 °C	–	hydrolysis product	100%
CC(C)C[C@H](NC(=O)[C@H](CC(N)=O)NC(=O)[C@H](CCCNC(=N)N)NC(=O)[C@@H](N)CS)C(=O)O	PPO3	enzyme activity, inhibitor	–	25 µM	–	remaining activity	71.9%
